Assay results of several laboratories.
Values joined by “and” are separate records of one study, mostly repeats; a detail may differ. ± marks the error that the study gave.

CCC(=O)N[C@@H](C)C(=O)OCC(=O)N[C@@H](C)C(=O)O
chain scission rate constant (water; pH 5, 50 °C): 0.0044 h⁻¹

COc1cccc(OCC(O)CN2CCN(c3ccccc3OC)CC2)c1 (stereo not drawn)
larval motion (zebrafish larvae, 7 dpf; 10 µM, minute 4): 4.3 ± 1.4 pixels/frame

COc1cc(O)ccc1CCC(c1ccc(O)cc1)c1cc2c(c(C)c1O)OC(c1ccc(O)cc1)CC2 (mixture of isomers)
amount (measured: 15-HEPE; human whole blood; 30 µM, together with: Escherichia coli): 153 ± 57 pg/mL blood

Cc1cn(CC(=O)N(CC(=O)N[C@H]2CCC[C@@H]2N(CC(=O)N[C@H]2COC[C@@H]2N(CC(=O)N[C@H]2COC[C@@H]2N(CC(=O)N[C@H]2COC[C@@H]2N(CC(=O)NCCOCCOCC(N)=O)C(=O)Cn2cnc3c(N)ncnc32)C(=O)Cn2cc(C)c(=O)[nH]c2=O)C(=O)Cn2cnc3c(N)ncnc32)C(=O)Cn2cnc3c(=O)[nH]c(N)nc32)[C@H]2CCC[C@@H]2NC(=O)CN(C(=O)Cn2cnc3c(=O)[nH]c(N)nc32)[C@H]2CCC[C@@H]2NC(=O)CN(C(=O)Cn2cc(C)c(=O)[nH]c2=O)[C@H]2COC[C@@H]2NC(=O)CN(C(=O)Cn2cnc3c(N)ncnc32)[C@H]2COC[C@@H]2NC(=O)CN(C(=O)Cn2cnc3c(=O)[nH]c(N)nc32)[C@H]2COC[C@@H]2N)c(=O)[nH]c1=O
Tm (UV melting; DNA duplex with T·C mismatch; pH 7.2, 1 µM each strand): 57.1 °C

Cc1ccc([N+](=O)[O-])cc1S(=O)(=O)N(C)/N=C/c1cnc2ccc(Br)cn12
live cells (peripheral blood mononuclear cells, Sézary syndrome patients; 200 nM): 42.8%

Cc1cc(OCCOCCN(C)C)cc(C(C)C)c1
larval motion (locomotor activity in dark; zebrafish larvae, 7 dpf; 10 µM, minute 1, dark phase): 3.5 ± 1 pixels/frame

COc1ccc(C(=O)CCc2cc(C(CCc3ccc(O)cc3OC)c3ccc(O)cc3)c(O)cc2OC)cc1 (racemic)
14-HDHA level (human blood; 1 µM, together with: A23187): 715 ± 180 pg/mL

CCCCCCCCCCCCCCCC(=O)OCC(CSC[C@H](N)C(=O)N[C@@H](CO)C(=O)N[C@@H](CCCCN)C(=O)N[C@@H](CCCCN)C(=O)N[C@@H](CCCCN)C(=O)N[C@@H](CCCCN)C(=O)NCCCCCC(=O)N[C@@H](CCCCN)C(=O)N[C@@H](CC(C)C)C(=O)N[C@H](C(=O)N[C@@H](Cc1ccccc1)C(=O)N[C@@H](Cc1ccccc1)C(=O)N[C@@H](Cc1ccc2ccccc2c1)C(=O)O)C(C)C)OC(=O)CCCCCCCCCCCCCCC (stereo partly drawn)
plaque density (thioflavin S staining, measured: amyloid-beta plaque; APP/PS1 transgenic mouse, cortex; intracortical injection, dose not given): 58.9 /mm2 and 89.4 /mm2 and 83 /mm2

CCc1cc(OCCOCCN(C)C)ccc1Cl
larval motion (zebrafish larvae, 7 dpf; 10 µM, minute 2): 9.7 ± 2.1 pixels/frame

CC(CCC(=O)NCc1ccc(C(=O)NO)cc1)C1CCC2C3C(O)CC4CC(O)CCC4(C)C3CCC12C (stereo not drawn)
relative abundance (measured: Tauro-conj; PCK rat (Pkhd1 mutant), portal blood; oral gavage, dose not given, 5 months; reference: total bile acids): 33.1%

Cc1cnc2nc1Nc1cccc(c1)COC/C=C/COCc1cc(ccc1OCCN1CCOCC1)N2
CD71/Ter119 cells (BALB/c mice rhEPO-induced polycythemia, spleen; 75 mg/kg): 19.3% and 22.5% and 20.3% and 19.6% and 15.7% and 23.4%

CN(C)CCOCCOc1ccc(Cl)c(Cl)c1
larval motion (zebrafish larvae, 7 dpf; 10 µM, minute 2): 6.7 ± 1.9 pixels/frame

CN(C)C(=O)c1ccnc(N2Cc3cn(Cc4ccc(F)cc4F)nc3C2)n1
paired-pulse ratio (mouse, hippocampal slice, Schaffer collaterals; dose not given, interstimulus interval 100; reference: second over first response): 2.28 and 1.51 and 1.36 and 1.55 and 1.46 and 1.63 and 1.75 and 1.57

COC1CN([C@H]2CC[C@H]([C@@]3(C)Oc4c(Cl)cc(C(=O)NCc5c(SC)cc(C)[nH]c5=O)c(C)c4O3)CC2)C1
log2 fold change (RNA-seq, measured: GAREM1; human, whole blood; dose not given, 24 h; reference: pretreatment baseline): 1.47

O=C(CCN1CCN(C/C=C/c2ccccc2)CC1)Nc1ccccc1F
larval motion (locomotor activity in dark; zebrafish larvae, 7 dpf; 10 µM, minute 3, dark phase): 2.5 ± 1.1 pixels/frame

C=Cc1c(C)c2cc3nc(c(CC(=O)[O-])c4[n-]c(cc5nc(cc1[n-]2)C(C)=C5CC)c(C)c4C(=O)[O-])C(CCC(=O)[O-])C3C.[Cu+2].[Na+].[Na+].[Na+] (stereo not drawn)
reactive oxygen species level (DCF fluorescence; bone marrow mononuclear cells, C57BL/6 mouse, female, cyclophosphamide-treated; dose not given, together with: cyclophosphamide; reference: cyclophosphamide alone): decreased

CN1CCC[C@]1(C)/C=C/S(=O)(=O)NC(=O)Nc1c2c(cc3c1CCC3)CCC2
inhibition (IL-18 release; human, whole blood ex vivo; oral, 50 mg twice daily, day 14, 336 h, multiple ascending dose, together with: LPS and ATP): 90.4%

CC(=O)[O-].O.O.[O-]c1ccc(Br)cc1C=NCCN1CCOCC1.[Zn+2]
inhibition (hydroxyl radical scavenging; 120 µM): 32.5%

Cc1cc(OCCOCCn2ccnc2)cc(C(C)C)c1
larval motion (locomotor activity in dark; zebrafish larvae, 7 dpf; 10 µM, minute 7, dark phase): 0.8 ± 0.4 pixels/frame

Nc1nc2cc(CC[C@H]3C[C@@H](n4ccc5c(N)ncnc54)[C@H](O)[C@@H]3O)ccc2cc1Br
tumour volume (A-427 xenograft, mouse; 3.0 mg/kg/day, day 34): 108 ± 23 mm3

Cc1cc(C(C)(C)C)ccc1OCCOCCN(C)C
larval motion (zebrafish larvae, 7 dpf; 10 µM, minute 2): 13.8 ± 1.3 pixels/frame

CN1CCCNC(=O)c2cccc(c2)C(=O)NCCCN(C)CCCNc2cccc3c2C(=O)c2cccc(c2C3=O)NCCC1
tumour volume (SAS xenograft, KSN/Slc nude mice; dose not given, 192 h (day 8), group mean): 249 mm3

Cc1cc(C)cc(NC(=O)CCN2CCCCCC2)c1
larval motion (zebrafish larvae, 7 dpf; 10 µM, minute 6): 21.8 ± 2.6 pixels/frame

Cc1cn(CC(=O)N(CC(=O)N[C@H]2COC[C@@H]2N(CC(=O)NCCOCCOCC(N)=O)C(=O)Cn2cnc3c(N)ncnc32)[C@H]2COC[C@@H]2NC(=O)CN(C(=O)Cn2cnc3c(N)ncnc32)[C@H]2COC[C@@H]2NC(=O)CN(C(=O)Cn2cnc3c(=O)[nH]c(N)nc32)[C@H]2COC[C@@H]2NC(=O)CN(C(=O)Cn2cc(C)c(=O)[nH]c2=O)[C@H]2COC[C@@H]2NC(=O)CN(C(=O)Cn2cnc3c(=O)[nH]c(N)nc32)[C@H]2COC[C@@H]2NC(=O)CN(C(=O)Cn2cc(C)c(=O)[nH]c2=O)[C@H]2COC[C@@H]2NC(=O)CN(C(=O)Cn2cnc3c(N)ncnc32)[C@H]2COC[C@@H]2NC(=O)CN(C(=O)Cn2cnc3c(=O)[nH]c(N)nc32)[C@H]2COC[C@@H]2N)c(=O)[nH]c1=O
Tm (UV melting; RNA duplex with T·U mismatch; pH 7.2, 1 µM each strand): 53.7 °C

A few entries again:
Cc1cc(C(C)(C)C)ccc1OCCOCCN(C)C
larval motion (zebrafish larvae, 7 dpf; 10 µM, minute 2): 13.8 ± 1.3 pixels/frame

Cc1cn(CC(=O)N(CC(=O)N[C@H]2CCC[C@@H]2N(CC(=O)N[C@H]2COC[C@@H]2N(CC(=O)N[C@H]2COC[C@@H]2N(CC(=O)N[C@H]2COC[C@@H]2N(CC(=O)NCCOCCOCC(N)=O)C(=O)Cn2cnc3c(N)ncnc32)C(=O)Cn2cc(C)c(=O)[nH]c2=O)C(=O)Cn2cnc3c(N)ncnc32)C(=O)Cn2cnc3c(=O)[nH]c(N)nc32)[C@H]2CCC[C@@H]2NC(=O)CN(C(=O)Cn2cnc3c(=O)[nH]c(N)nc32)[C@H]2CCC[C@@H]2NC(=O)CN(C(=O)Cn2cc(C)c(=O)[nH]c2=O)[C@H]2COC[C@@H]2NC(=O)CN(C(=O)Cn2cnc3c(N)ncnc32)[C@H]2COC[C@@H]2NC(=O)CN(C(=O)Cn2cnc3c(=O)[nH]c(N)nc32)[C@H]2COC[C@@H]2N)c(=O)[nH]c1=O
Tm (UV melting; DNA duplex with T·C mismatch; pH 7.2, 1 µM each strand): 57.1 °C

CN(C)CCOCCOc1ccc(Cl)c(Cl)c1
larval motion (zebrafish larvae, 7 dpf; 10 µM, minute 2): 6.7 ± 1.9 pixels/frame
